Results gathered from unrelated publications.
Every numbered part comes from another study and shows a few of its results, in no order.

Set 1
Target: Sal-like protein 4, full length isoform A (SALL4, Homo sapiens, UniProt Q9UJQ4, residues 1-1053)
Chain of UniProt Q9UJQ4 (whole entry, looked up): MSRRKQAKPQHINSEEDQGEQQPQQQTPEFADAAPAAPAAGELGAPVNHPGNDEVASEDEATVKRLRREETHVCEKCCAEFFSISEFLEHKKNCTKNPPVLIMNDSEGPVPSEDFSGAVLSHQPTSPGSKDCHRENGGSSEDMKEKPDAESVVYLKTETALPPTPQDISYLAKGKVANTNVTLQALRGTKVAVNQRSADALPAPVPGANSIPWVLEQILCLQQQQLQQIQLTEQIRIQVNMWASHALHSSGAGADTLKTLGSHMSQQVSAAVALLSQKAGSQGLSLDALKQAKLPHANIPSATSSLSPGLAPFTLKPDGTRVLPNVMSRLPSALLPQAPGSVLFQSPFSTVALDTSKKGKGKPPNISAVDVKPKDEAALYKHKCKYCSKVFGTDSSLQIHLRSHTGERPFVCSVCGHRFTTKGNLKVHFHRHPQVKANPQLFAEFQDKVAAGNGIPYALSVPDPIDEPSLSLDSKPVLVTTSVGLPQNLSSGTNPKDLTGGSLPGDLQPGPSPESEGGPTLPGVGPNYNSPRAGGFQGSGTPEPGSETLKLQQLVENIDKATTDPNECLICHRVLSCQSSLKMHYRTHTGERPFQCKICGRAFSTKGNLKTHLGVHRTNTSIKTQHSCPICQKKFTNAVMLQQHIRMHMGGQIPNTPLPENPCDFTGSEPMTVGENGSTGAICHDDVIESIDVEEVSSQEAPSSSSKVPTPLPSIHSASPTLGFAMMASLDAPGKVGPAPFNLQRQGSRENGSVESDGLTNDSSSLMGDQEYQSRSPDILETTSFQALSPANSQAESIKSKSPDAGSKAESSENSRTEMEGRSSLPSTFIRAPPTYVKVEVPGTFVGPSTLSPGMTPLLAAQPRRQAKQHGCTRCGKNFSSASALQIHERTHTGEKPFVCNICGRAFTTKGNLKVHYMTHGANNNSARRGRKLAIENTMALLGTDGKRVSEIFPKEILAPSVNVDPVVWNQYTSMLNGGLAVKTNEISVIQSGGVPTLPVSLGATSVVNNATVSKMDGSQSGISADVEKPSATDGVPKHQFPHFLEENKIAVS
Method: universal PBM
Form: double-stranded DNA, one strand shown
Matrix: in vitro
Concentration: 600 nM
Setting: 8-mer, flanks averaged, mean of replicates
Reading: higher = stronger binding
Endpoint: E-score
AACCACAA: 0.121
CAGCTGCC: -0.165
GACTTCAA: 0.0709
AAGCTCAG: -0.0741
TACTGTAA: 0.205
ACAAGCGT: -0.116
ATGTGAGA: 0.219
AACCGTAC: -0.0364
TGCCCTAA: -0.0439
GCTCCAGC: -0.226
CTCGTTGA: -0.0688
ACTGAACC: -0.204
ATTGATGA: 0.267
AAGTCAAC: 0.123
GGATTTGA: 0.0791
CGGTGACC: -0.32
CCGAGAGA: -0.0953
CCATTATC: 0.15

Set 2
Target: Cyclic AMP-dependent transcription factor ATF-1, full length (ATF1, Homo sapiens, UniProt P18846, residues 1-271)
Method: protein-binding microarray
Form: hairpin DNA
Matrix: in vitro
Concentration: not given
Setting: whole hairpin DNA, median over replicate spots
Relative to: not given
Reading: higher = stronger binding
Endpoint: median fluorescence
Constant ends, left off below: GAGGCCG … CGGCCTCACACTC
Target sequence (chain): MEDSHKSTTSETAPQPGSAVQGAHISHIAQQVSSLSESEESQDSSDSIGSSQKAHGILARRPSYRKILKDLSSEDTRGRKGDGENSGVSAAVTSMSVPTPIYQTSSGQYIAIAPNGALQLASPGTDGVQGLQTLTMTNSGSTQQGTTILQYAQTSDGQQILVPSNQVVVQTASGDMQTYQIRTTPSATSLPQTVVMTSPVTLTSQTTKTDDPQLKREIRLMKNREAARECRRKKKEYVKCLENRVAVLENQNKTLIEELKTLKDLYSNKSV
GCCGACGTCAGCCTCCTGGCTGACGTCGGC: 6020 a.u.
ACGACATCGTGCCTCCTGGCACGATGTCGT (5mC at 9 15 29 35): 3310 a.u.
ACGACGTCGGGCCTCCTGGCCCGACGTCGT (5mC at 9 15 29 35): 3710 a.u.
GCTGACTTCAGCCTCCTGGCTGAAGTCAGC: 3060 a.u.
CGTGACGTCAGCCTCCTGGCTGACGTCACG (5mC at 8): 16700 a.u.
ACGACCTCGTGCCTCCTGGCACGAGGTCGT (5mC at 9 15 29 35): 3210 a.u.
ACGACCGCGTGCCTCCTGGCACGCGGTCGT (5mC at 9 13 15 29 31 35): 3650 a.u.
GATGACGTAAGCCTCCTGGCTTACGTCATC: 11200 a.u.
ACGACGTCCTGCCTCCTGGCAGGACGTCGT (5mC at 9 15 35): 3650 a.u.
GCTGCGGTCAGCCTCCTGGCTGACCGCAGC (5mC at 32): 3520 a.u.
GCTCACGTCAGCCTCCTGGCTGACGTGAGC: 4700 a.u.
ACCGCGTCGTGCCTCCTGGCACGACGCGGT (5mC at 9 15 29 34): 5080 a.u.
GCTGACGTCGGCCTCCTGGCCGACGTCAGC (5mC at 28): 7610 a.u.

Set 3
Target: RNA binding protein fox-1 homolog 2, RRM domain, GST-SBP tag (RBFOX2, Homo sapiens, UniProt O43251-10, residues 100-194)
Method: RNA Bind-n-Seq
Form: RNA
Matrix: in vitro
Concentration: 365 nM
Setting: natural RNA segment, single round, ends assumed
Relative to: no-protein control
Reading: higher = stronger binding
Endpoint: RBNS enrichment (R)
Residues (chain): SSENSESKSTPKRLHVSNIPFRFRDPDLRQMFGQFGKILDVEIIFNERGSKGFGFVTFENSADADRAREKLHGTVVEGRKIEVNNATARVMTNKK
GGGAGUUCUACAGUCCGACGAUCGUGUCUCAAAGAAGGGUGGAAGUUCUCAUGUCUGUUAGCUAUUCAUAAGAAUGCUGUUUGCUGCAGUUCUGUGUCCUGUGCUUGGAUGCUUUUUUAUAAGAGUUGUCAUUUGGAAUUCUCGGGUGCCAA: 29.1
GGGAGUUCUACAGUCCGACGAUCUGCUUGUCCUUAUCCCUGCUUGGACACCUGAGCAUCAGAUCCCUGUGCCCCUGGUGCCAUCUGGCCUGGCUGGAGCCAGGAACAAGAGGUCACCCCACCCUAGAAUCCGCUGGAAUUCUCGGGUGCCAA: 0.287
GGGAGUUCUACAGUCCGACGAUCCUGAUGGUGUCCUCCUCUGGGCAGCUGUAUAGGAUCAUCAUGUGGUUACAAAAAAUACUUCCCUCAAAAAAAUUCUUUUAAUGUGGAAACAAUAAAUUUCACAGAAAAAAUGGAAUUCUCGGGUGCCAA: 0.393
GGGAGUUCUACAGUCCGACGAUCAACCAUUAAAUCUAUUGUUUGGAAAGUCUGCAGUCCUGAGGAGGGCUUGCUCACUGGACACCCACAGAUCUGGCCCUUUGAAAGGCAGCCUUCAGAUGCCCAUCGUGUGAUGGAAUUCUCGGGUGCCAA: 0.238
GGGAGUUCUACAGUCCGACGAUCACACUGGGCACUUUUGGAAAUAAUGUUUAAAUCAUUCAGGUUGUGUUCCUGUCCCCAAAACAGAUCUACAAAAUAAUACCAAACCUGAAAGAUUCCAUGGAUUUACGGUGUGGAAUUCUCGGGUGCCAA: 0.294
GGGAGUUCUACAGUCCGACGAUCGAUUGGCAAGGCUCCUAUGGAGCUCCCAGAAGCCUCAGCUAGGAAAAUGAGCCCUCACUUCAGCCUGUAUCUAGCACGUGGGGCAGCUGCCUAGCUGACUGCUGCACAAGUGGAAUUCUCGGGUGCCAA: 1.38
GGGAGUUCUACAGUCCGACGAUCGACUGUCAUCUUAUUUUUAAAAGUCAUUCUUUACGUUUAAAAUUUUAAAAUAAAAACCUUCUGAGGUAUUGAUGUAGUCCACCGUGUAAAUGUUACCUUCUCUCCAUGCUUGGAAUUCUCGGGUGCCAA: 0.2
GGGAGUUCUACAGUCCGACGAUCGCAAAGUUUGUCUUGACAGUUGAAGGCCUCGCUUAGUUGUACUGGAUUCUCAGGGAGCCCUCUGUGGCCUUUUGCUUUGCGUGCUGUUUCCCUUGUACCAGAGGGCGGCAUGGAAUUCUCGGGUGCCAA: 0.487
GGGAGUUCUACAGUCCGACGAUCCAACCAUCGAAAAUGGAUUCUUAGUACCAGACAAUCCCAGUAAUGAAGGUUUAGUUUCCUUGAAGGAAACUACAGAAAAGGAAAGAAGCAGAAUGAGAAAGGAAUGGUACUGGAAUUCUCGGGUGCCAA: 1.67
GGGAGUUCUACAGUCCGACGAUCUGACAAGGGGACGGGGUCUGUGAGAGUCAAUUCAGGGGAAAGAUACAAGAUUGAUUUGUAAAACCCUUGAAAUGUAGAUUUCUUGUAGAUGUAUCUUCACGUUGUAAAUAUGGAAUUCUCGGGUGCCAA: 0.623
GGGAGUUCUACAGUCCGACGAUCAGCAGAAUUGUCUGGAAAGACUGAAGGACAGAGAGGGAGGUGUACAGUUCUCUCUGGAGGCUUUGUGGGAUUGGGAGAGCUGCUACAGAGGAGUACCAUGAAAGCACUGAUGGAAUUCUCGGGUGCCAA: 1.69
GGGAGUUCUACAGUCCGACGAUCACAUCCAGUUUUUAAGACAGAAUGAGAUGGGAAAGAGGUACAAAAUAAUCUGCUGCCAUUCCUUGUCUGAAUGGCUCAGCAGGAGUAACUGUUAUCUCCUCUCCUAAGGAUGGAAUUCUCGGGUGCCAA: 0.243

Set 4
Target: UBE2V2 UBC core domain (UniProt Q15819)
Method: yeast two-hybrid
Matrix: yeast
Setting: mostly zero background
Relative to: not given
Reading: higher = stronger interaction
Endpoint: lacZ reporter activity
B1: TRIM8 RING domain (UniProt Q9BZR9); chain WKNCFEEELICPICLHVFVEPVQLPCKHNFCRGCIGEAWAKDSGLVRCPECNQAYNQKPGLE
B2: UHRF2 RING domain (UniProt Q96PU4); chain CGGDPEKKCHSCSCRVCGGKHEPNMQLLCDECNVAYHIYCLNPPLDKVPEEEYWYCPSCKTDSSEVVKAGER
B3: RC3H2 RING domain (UniProt Q9HBD1); chain QAAQWTEFLSCPICYNEFDENVHKPISLGCSHTVCKTCLNKLHRKACPFDQTAINTDIDVL
B4: TRIM72 RING domain (UniProt Q6ZMU5); chain APGLLHQELSCPLCLQLFDAPVTAECGHSFCRACLGRVAGEPAADGTVLCPCCQAPTRPQALST
B5: TRIM69 RING domain (UniProt Q86WT6); chain VIQDITMELHCPLCNDWFRDPLMLSCGHNFCEACIQDFWRLQAKETFCPECKMLCQYNNCTF
B6: RNF25 RING domain (UniProt Q96BH1); chain LTDNNIPHGQCVICLYGFQEKEAFTKTPCYHYFHCHCLARYIQHMEQELKAQGQEQEQERQHATTKQKAVGVQCPVCREPLVYDLASL
B7: RNF170 RING domain (UniProt Q96K19); chain TRQQFYTDMYCPICLHQASFPVETNCGHLFCGACIIAYWRYGSWLGAISCPICRQTVTLLLTVF
Construct (chain): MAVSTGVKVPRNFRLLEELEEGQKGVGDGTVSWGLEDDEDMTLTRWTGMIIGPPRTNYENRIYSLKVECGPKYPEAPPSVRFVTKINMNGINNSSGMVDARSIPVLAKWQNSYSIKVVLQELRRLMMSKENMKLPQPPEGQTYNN
QLRRLQEERTCKVCMDKEVSVVFIPCGHLVVCQECAPSLRKCPICRGIIKGTVRTF (BIRC2 RING domain (UniProt Q13490)): 0
B1 (TRIM8 RING domain): 0
QLQDIKEQTMCPVCLDRLKNMIFLCGHGTCQLCGDRMSECPICRKAIERRILLY (MIB1 RING domain (UniProt Q86YT6)): 0
PEELQAMDNVCIICREEMVTGAKRLPCNHIFHTSCLRSWFQRQQTCPTCRMDVLRASLPA (SYVN1 RING domain (UniProt Q86TM6)): 0
B2 (UHRF2 RING domain): 0
B3 (RC3H2 RING domain): 0
B4 (TRIM72 RING domain): 0
B5 (TRIM69 RING domain): 0
FASPPDSNFVCSVCHGVLKRPARLPCSHIFCKKCILRWLARQKTCPCCRKEVKRKKVVH (RNF151 RING domain (UniProt Q2KHN1)): 0
DAIPSLSECQCGICMEILVEPVTLPCNHTLCKPCFQSTVEKASLCCPFCRRRVSSWTRYH (RNF168 RING domain (UniProt Q8IYW5)): 0
RLTMMWEEVTCPICLDPFVEPVSIECGHSFCQECISQVGKGGGSVCPVCRQRFLLKNLRP (TRIM21 RING domain (UniProt P19474)): 0
B6 (RNF25 RING domain): 0
DDENSDNSNECVVCLSDLRDTLILPCRHLCLCTSCADTLRYQANNCPICRLPFRALLQIR (MGRN1 RING domain (UniProt O60291)): 0
VTLSLTLPITCHICLGKVRQPVICINNHVFCSICIDLWLKNNSQCPACRVPITPENPCK (OBI1 RING domain (UniProt Q5W0B1)): 0
B7 (RNF170 RING domain): 0
FPEHFVKSISCQICEHILADPVETNCKHVFCRVCILRCLKVMGSYCPSCRYPCFPTDLES (RAG1 RING domain (UniProt P15918)): 0

Repeated from above (set 3):
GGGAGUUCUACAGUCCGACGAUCACACUGGGCACUUUUGGAAAUAAUGUUUAAAUCAUUCAGGUUGUGUUCCUGUCCCCAAAACAGAUCUACAAAAUAAUACCAAACCUGAAAGAUUCCAUGGAUUUACGGUGUGGAAUUCUCGGGUGCCAA: 0.294
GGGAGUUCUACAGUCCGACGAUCCAACCAUCGAAAAUGGAUUCUUAGUACCAGACAAUCCCAGUAAUGAAGGUUUAGUUUCCUUGAAGGAAACUACAGAAAAGGAAAGAAGCAGAAUGAGAAAGGAAUGGUACUGGAAUUCUCGGGUGCCAA: 1.67
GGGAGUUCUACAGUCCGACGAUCUGCUUGUCCUUAUCCCUGCUUGGACACCUGAGCAUCAGAUCCCUGUGCCCCUGGUGCCAUCUGGCCUGGCUGGAGCCAGGAACAAGAGGUCACCCCACCCUAGAAUCCGCUGGAAUUCUCGGGUGCCAA: 0.287
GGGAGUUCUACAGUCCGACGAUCAACCAUUAAAUCUAUUGUUUGGAAAGUCUGCAGUCCUGAGGAGGGCUUGCUCACUGGACACCCACAGAUCUGGCCCUUUGAAAGGCAGCCUUCAGAUGCCCAUCGUGUGAUGGAAUUCUCGGGUGCCAA: 0.238
